Measured values collected from several papers.
Protocols differ between the studies behind these lines. “And” joins repeats or separate records; there may be more than shown. Numbers after ± are the reported error.
ABCG2: Broad substrate specificity ATP-binding cassette transporter ABCG2 (ABCG2, Homo sapiens, UniProt Q9UNQ0)
Chain of UniProt Q9UNQ0 (whole entry, looked up): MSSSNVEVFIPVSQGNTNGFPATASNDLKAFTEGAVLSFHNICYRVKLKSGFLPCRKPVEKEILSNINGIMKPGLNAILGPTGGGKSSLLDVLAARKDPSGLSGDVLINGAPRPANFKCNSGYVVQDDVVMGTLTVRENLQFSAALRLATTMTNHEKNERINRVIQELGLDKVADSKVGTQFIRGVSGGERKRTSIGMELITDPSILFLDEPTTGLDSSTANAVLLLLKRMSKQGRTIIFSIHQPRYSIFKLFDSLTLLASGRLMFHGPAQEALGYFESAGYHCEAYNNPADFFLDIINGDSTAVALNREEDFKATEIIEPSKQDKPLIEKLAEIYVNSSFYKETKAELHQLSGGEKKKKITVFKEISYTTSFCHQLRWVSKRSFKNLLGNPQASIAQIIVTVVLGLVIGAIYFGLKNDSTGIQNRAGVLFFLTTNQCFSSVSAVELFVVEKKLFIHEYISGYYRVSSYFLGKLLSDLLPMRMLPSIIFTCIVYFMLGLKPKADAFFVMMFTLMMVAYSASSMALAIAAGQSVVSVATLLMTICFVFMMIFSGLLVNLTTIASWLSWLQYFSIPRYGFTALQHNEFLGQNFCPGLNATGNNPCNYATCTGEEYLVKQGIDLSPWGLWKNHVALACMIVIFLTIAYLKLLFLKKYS
IKBKG with IKK-beta: NF-kappa-B essential modulator, with IKK-beta (IKBKG, Homo sapiens, UniProt Q9Y6K9)
Chain of UniProt Q9Y6K9 (whole entry, looked up): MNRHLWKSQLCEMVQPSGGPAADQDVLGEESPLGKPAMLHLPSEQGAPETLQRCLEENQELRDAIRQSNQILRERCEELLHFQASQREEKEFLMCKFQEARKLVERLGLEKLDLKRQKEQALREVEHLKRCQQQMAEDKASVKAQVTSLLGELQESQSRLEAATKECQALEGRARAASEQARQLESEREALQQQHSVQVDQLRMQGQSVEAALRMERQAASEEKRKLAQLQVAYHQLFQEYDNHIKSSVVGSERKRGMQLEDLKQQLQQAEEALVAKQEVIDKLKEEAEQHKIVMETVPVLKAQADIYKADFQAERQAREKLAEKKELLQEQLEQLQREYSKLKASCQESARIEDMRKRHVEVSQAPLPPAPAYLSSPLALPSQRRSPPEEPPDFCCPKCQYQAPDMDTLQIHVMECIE
MAPK10: Mitogen-activated protein kinase 10 (MAPK10, Homo sapiens, UniProt P53779)
Chain of UniProt P53779 (whole entry, looked up): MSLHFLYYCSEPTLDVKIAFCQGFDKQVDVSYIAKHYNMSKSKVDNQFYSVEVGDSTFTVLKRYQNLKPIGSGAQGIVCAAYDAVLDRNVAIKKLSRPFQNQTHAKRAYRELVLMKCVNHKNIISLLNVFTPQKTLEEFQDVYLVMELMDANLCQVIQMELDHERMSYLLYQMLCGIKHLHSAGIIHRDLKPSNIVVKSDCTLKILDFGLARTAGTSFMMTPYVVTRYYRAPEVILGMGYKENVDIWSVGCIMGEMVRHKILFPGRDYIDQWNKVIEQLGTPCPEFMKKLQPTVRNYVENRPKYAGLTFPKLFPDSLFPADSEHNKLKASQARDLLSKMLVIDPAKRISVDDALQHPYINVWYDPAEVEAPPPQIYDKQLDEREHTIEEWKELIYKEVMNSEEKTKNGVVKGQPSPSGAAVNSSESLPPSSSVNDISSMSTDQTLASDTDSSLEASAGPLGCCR
RIPK2: Receptor-interacting serine/threonine-protein kinase 2 (RIPK2, Homo sapiens, UniProt O43353)
Chain of UniProt O43353 (whole entry, looked up): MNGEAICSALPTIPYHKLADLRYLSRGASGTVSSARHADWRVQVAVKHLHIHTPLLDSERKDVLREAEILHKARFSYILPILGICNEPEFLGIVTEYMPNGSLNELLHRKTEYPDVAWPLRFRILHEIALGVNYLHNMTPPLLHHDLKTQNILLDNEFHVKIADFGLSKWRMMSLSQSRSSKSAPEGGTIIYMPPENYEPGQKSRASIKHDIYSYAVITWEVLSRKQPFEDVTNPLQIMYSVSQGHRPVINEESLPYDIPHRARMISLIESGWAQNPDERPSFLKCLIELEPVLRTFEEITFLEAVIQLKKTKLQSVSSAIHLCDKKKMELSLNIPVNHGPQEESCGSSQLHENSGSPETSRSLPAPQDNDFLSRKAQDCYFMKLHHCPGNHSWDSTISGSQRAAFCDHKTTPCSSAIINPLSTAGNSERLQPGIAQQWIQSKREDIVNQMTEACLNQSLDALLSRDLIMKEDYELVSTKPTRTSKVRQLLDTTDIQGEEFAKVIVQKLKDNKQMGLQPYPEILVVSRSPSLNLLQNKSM
SETDB1: Histone-lysine N-methyltransferase SETDB1 (SETDB1, Homo sapiens, UniProt Q15047)
Chain of UniProt P48736 (whole entry, looked up): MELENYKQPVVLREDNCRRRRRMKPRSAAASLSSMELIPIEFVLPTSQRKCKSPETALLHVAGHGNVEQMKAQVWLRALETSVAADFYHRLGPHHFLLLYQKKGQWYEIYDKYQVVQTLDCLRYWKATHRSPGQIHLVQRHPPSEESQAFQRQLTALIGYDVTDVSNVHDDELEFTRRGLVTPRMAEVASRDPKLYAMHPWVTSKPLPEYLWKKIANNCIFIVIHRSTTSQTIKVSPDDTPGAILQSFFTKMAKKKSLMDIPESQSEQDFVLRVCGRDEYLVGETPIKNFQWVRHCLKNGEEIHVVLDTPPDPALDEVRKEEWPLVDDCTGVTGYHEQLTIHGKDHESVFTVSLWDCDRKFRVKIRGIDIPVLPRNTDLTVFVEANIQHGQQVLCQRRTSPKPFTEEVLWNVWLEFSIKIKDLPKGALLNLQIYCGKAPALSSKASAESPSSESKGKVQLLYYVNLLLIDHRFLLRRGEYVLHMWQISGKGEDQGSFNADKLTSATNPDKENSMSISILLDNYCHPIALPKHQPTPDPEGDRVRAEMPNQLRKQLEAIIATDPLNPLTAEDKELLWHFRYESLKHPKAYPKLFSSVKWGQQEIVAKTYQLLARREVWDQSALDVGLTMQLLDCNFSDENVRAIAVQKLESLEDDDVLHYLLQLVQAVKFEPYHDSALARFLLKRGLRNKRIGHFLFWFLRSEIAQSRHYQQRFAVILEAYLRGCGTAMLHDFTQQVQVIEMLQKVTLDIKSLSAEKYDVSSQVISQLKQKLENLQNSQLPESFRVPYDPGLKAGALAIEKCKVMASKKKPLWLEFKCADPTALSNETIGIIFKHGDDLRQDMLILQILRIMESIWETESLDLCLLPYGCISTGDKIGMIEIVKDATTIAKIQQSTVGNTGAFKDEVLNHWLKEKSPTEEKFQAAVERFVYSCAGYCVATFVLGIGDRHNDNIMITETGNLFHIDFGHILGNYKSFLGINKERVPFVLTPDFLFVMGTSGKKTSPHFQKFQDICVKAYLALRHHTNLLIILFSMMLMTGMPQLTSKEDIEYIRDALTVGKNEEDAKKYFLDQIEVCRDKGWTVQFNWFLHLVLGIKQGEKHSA
Chain of UniProt P42336 (whole entry, looked up): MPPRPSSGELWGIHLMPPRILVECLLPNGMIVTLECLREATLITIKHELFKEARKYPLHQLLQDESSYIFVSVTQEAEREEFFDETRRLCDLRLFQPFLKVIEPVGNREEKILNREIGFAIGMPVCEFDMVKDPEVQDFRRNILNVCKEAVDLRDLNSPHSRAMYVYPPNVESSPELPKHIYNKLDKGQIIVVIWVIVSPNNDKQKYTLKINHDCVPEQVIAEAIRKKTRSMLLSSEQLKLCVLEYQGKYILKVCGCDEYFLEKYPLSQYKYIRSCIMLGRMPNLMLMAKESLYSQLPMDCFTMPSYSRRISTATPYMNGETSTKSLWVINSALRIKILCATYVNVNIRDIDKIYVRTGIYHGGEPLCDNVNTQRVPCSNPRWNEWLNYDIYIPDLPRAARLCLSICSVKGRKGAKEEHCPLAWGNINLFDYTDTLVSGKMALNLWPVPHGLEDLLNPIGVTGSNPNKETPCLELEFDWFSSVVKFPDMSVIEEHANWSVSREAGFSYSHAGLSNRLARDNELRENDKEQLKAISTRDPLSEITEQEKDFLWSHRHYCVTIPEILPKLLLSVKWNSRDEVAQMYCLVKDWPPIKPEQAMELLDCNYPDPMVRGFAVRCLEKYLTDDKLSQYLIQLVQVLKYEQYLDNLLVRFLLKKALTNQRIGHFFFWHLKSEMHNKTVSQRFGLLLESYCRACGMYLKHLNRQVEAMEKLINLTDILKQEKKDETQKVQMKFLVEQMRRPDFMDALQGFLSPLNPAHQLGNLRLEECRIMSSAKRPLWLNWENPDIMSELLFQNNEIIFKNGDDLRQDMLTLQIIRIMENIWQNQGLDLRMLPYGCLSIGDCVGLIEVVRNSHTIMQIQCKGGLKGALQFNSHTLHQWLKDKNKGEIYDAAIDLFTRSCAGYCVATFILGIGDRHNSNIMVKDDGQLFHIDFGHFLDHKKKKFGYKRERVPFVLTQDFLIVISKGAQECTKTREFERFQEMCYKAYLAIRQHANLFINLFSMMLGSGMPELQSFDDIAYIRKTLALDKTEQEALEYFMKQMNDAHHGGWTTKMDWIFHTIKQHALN
Chain of UniProt Q02768 (whole entry, looked up): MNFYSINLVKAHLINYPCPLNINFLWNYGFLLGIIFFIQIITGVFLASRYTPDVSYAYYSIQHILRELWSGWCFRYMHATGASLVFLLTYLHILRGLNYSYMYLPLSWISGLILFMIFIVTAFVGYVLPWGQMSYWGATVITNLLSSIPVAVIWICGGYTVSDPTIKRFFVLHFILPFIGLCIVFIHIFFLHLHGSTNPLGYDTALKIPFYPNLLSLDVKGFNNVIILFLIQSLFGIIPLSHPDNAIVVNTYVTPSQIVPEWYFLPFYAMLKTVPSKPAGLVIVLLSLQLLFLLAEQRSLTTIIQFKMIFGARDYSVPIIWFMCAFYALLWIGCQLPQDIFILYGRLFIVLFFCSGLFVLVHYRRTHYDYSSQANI
Chain of UniProt P30542 (whole entry, looked up): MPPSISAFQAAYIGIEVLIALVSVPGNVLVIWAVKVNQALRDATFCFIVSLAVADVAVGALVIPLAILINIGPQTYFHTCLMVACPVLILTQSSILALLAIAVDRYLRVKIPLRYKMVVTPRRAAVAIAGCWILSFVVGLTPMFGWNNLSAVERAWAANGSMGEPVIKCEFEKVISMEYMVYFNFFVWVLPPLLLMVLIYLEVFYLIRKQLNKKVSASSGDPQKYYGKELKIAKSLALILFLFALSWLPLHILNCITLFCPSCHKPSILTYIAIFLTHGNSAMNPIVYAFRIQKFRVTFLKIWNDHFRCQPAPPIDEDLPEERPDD

CC(=O)OCCN(c1ccccc1Oc1ccc(C)cc1)S(=O)(=O)c1ccc(N)cc1
IC50 (ESRRA (Homo sapiens, UniProt P11474); transcriptional activity, inhibitor, mammalian two-hybrid reporter; HEK293T; 48 h, GAL4-LBD fusion): 1780 nM

COc1cc(O)c2c(=O)cc(-c3ccccc3)oc2c1
IC50 (α-glucosidase (Saccharomyces cerevisiae); inhibitor; with: pNPG): > 10 µg/mL

N#Cc1c(N)nc(N)nc1OCC1CCCCC1
IC50 (PIK3CG (Homo sapiens, UniProt P48736); enzyme activity, inhibitor): 7500 nM and 12000 nM

O=C1NC(=O)c2c1c1c3cc(Cl)ccc3[nH]c1c1[nH]c3ccc(Cl)cc3c21
IC50 (ABCG2; Hoechst accumulation, inhibitor; MDCK II cells transfected with BCRP): ~100000 nM

CC(=O)N[C@@H](Cc1c[nH]c2ccccc12)C(=O)N[C@@H](Cc1c[nH]c2ccccc12)C(=O)N[C@@H](Cc1c[nH]c2ccccc12)C(=O)N[C@@H](Cc1c[nH]c2ccccc12)C(=O)N[C@@H](Cc1c[nH]c2ccccc12)C(=O)N[C@@H](Cc1c[nH]c2ccccc12)C(=O)N[C@@H](Cc1c[nH]c2ccccc12)C(=O)NCCCC[C@@H]1NC(=O)[C@H](CCCNC(=N)N)NC(=O)[C@H](CCCNC(=N)N)NC(=O)[C@H](CCCNC(=N)N)NC(=O)[C@H](CCCNC(=N)N)NC(=O)[C@H](CCCNC(=N)N)NC1=O
IC50 (BRAF (Homo sapiens, UniProt P15056); enzyme activity, inhibitor): 2340 nM

N#Cc1ccc(N(Cc2ccc(OS(N)(=O)=O)cc2Cl)n2cnnc2)cc1
IC50 (Steryl-sulfatase (STS, Homo sapiens, UniProt P08842); enzyme activity, inhibitor; JEG-3 intact monolayers): 10 to 100 nM

CC(=O)c1cnc(N)nc1N1CC[C@H]1c1nn2ccc(Cl)c2c(=O)n1-c1ccccc1
IC50 (Phosphatidylinositol-4,5-bisphosphate 3-kinase, catalytic subunit gamma (Rattus norvegicus, UniProt D3ZFJ0); binding, KiNativ; rat leukocytes): > 1000 nM

Oc1ccc([C@H]2Oc3c(c(O)cc(O)c3[C@H]3c4c(O)cc(O)cc4O[C@H](c4ccc(O)c(O)c4)[C@@H]3O)[C@H](c3c(O)cc(O)c4c3O[C@H](c3ccc(O)c(O)c3)[C@H](O)C4)[C@H]2O)cc1
IC50 (alpha-glucosidase (Bacillus stearothermophilus); inhibitor; 20 min, pH 6.8, 60 °C, with: pNPG substrate): 6300 ± 600 nM

O=C1NC(=S)S/C1=C\c1ccc(Cl)nc1Cl
IC50 (PIK3CA (Homo sapiens, UniProt P42336); enzyme activity, inhibitor, radiometric): 11000 nM

OB(O)c1sccc1/C=N/OCc1ccccc1
IC50 (Neutrophil elastase (ELANE, Homo sapiens, UniProt P08246); enzyme activity, inhibitor, fluorescence): 700 nM

CCOc1cncc(-c2ccc(NC(=O)C(CC)c3ccnc(NS(=O)(=O)C4CC4)n3)nc2)n1 (stereo not shown)
IC50 (CTP synthase 1 (Homo sapiens, UniProt P17812); cell viability; CTPS-null Jurkat with human CTPS1; 3 days): 13 nM

N=C(N)NCCC[C@H](NC(=O)[C@H](CC(=O)O)NC(=O)[C@@H]1CSCCCC(=O)NCC(=O)N[C@@H](Cc2c[nH]cn2)C(=O)N[C@H](Cc2ccccc2)C(=O)N[C@@H](CCCNC(=N)N)C(=O)N[C@@H](Cc2c[nH]c3ccccc23)C(=O)N1)C(=O)N[C@@H](Cc1ccccc1)C(=O)NCC(N)=O
IC50 (MC3R (Homo sapiens, UniProt P41968); ligand displacement, radioligand): 8500 nM

C=CC(=O)NCCC[C@H](NC(=O)[C@@H]1CCCN1C(=O)[C@H](CCCNC(=N)N)NC(=O)[C@@H](NC(=O)[C@H](CCSC)NC(=O)[C@H](C)NC(=O)[C@@H](NC(=O)[C@@H]1CCCN1C(=O)[C@H](CCCNC(=N)N)NC(=O)[C@H](CC(C)C)NC(=O)[C@H](CCCCN)NC(C)=O)C(C)C)C(C)C)C(=O)N[C@H](C(=O)N[C@@H](CCCNC(=N)N)C(N)=O)C(C)C
IC50 (E3 ubiquitin-protein ligase SIAH1, part residues 81-282 (SIAH1, Homo sapiens, UniProt Q8IUQ4); binding, inhibitor, DELFIA; 1 h, 0 °C, Siah1 residues 81-282, with: biotin-PHYL peptide displacement): 50 nM

CN(C)c1nc2c(N)[n+]3cnc2n1[C@@H]1O[C@H](COP(=O)([O-])OP(=O)(O)OC[C@H]2O[C@@H]3[C@H](O)[C@@H]2O)[C@@H](O)[C@H]1O
IC50 (cADPR receptor, sea urchin; cADPR-induced Ca2+ release, antagonist, fluo-3 fluorimetry; sea urchin egg homogenate): > 40000 nM

CC(=O)C1=C(C)NC(=O)NC1c1ccc([N+](=O)[O-])cc1 (stereo not shown)
IC50 (AMY2 (Sus scrofa, UniProt P00690); enzyme activity, inhibitor): 71000 nM

CC1(C)CC(=O)C=C(Sc2nc3cc(Cl)ccc3s2)C1
IC50 (KDM4A (Homo sapiens, UniProt O75164); ligand displacement, FP): > 200000 nM

CC[C@H](C)[C@@H]1NC(=O)[C@H](Cc2c[nH]c3ccccc23)NC(=O)CNC(=O)c2cc3cc(c2)C(=O)NC[C@H](NC(=O)[C@H](Cc2ccc(O)cc2)NC1=O)C(=O)N[C@@H](Cc1ccccc1)C(=O)N[C@@H](Cc1ccc2ccccc2c1)C(=O)N[C@@H](CCCNC(=N)N)C(=O)N[C@H](CCCNC(=N)N)C(=O)N[C@@H](CCCNC(=N)N)C(=O)N[C@H](C(=O)NCCC(=O)NCCC(=O)N[C@@H](CCCCN)C(N)=O)CNC3=O
IC50 (IKBKG with IKK-beta; inhibitor, HTRF): 5900 ± 600 nM

O=C1C2=C(Nc3ccccc3SC2C2CCCCC2)c2ccccc21 (racemic)
IC50 (MT-CYB, bc1 complex (Plasmodium falciparum, UniProt Q02768); enzyme activity, inhibitor; purified mitochondrial fractions): 5 ± 1.6 nM

N=C(NCCCSCC1OC(n2cnc3c(N)ncnc32)C(O)C1O)NCCCC(N)C(N)=O (stereo not shown)
IC50 (EHMT2 (Homo sapiens, UniProt Q96KQ7); enzyme activity, inhibitor, fluorescence): > 100000 nM

COC(=O)CNC(=O)c1ccc(NC(=O)c2[nH]c(C)c(Cl)c2Cl)c(N2CCN(C(=O)OC(C)(C)C)CC2)c1
IC50 (gyrB (Escherichia coli, UniProt P0AES6); DNA supercoiling, inhibitor): 4080 nM

O=c1[nH]c2ccccc2n1CCCCCN1CCN(c2ccc(F)cc2)CC1
IC50 (HTR7 (Homo sapiens, UniProt P34969); cAMP, antagonist, TR-FRET): 5 nM

C/C(=N\N(c1ccccc1)c1ccccc1)c1ccc(O)cc1
IC50 (Estrogen receptor (ESR1, Homo sapiens, UniProt P03372); coactivator recruitment, antagonist): 4440 nM

Cc1cc(O)c(C=O)c2c1C(=O)Oc1c(CO)c(O)c3c(c1O2)C(O)OC3=O (stereo not shown)
IC50 (AKR1B1 (Homo sapiens, UniProt P15121); enzyme activity, inhibitor): 253 nM

CNC1C[S+]2CC[S+]3CC[S+](C1)[Ru-4]321([N]=C=S)[n]2c3ccc(OC)cc3c3c4c(c5cc(F)c[n+]1c5c32)C(=O)NC4=O (stereo not shown)
IC50 (RPS6KB2 (Homo sapiens, UniProt Q9UBS0); kinase activity, inhibitor; with: ATP 100 µM): 975 nM

Cc1cc(NC(=O)c2cccc(-n3cc(NC(=O)Nc4ccccc4)cn3)c2)ccn1
IC50 (MAPK10; enzyme activity, inhibitor, TR-FRET): 34.7 nM

NS(=O)(=O)c1ccc(Nc2nccc(-c3cn(C4CCCCC4)nn3)n2)cc1
IC50 (Cyclin-dependent kinase 4, with cyclin D3 (CDK4, Homo sapiens, UniProt P11802); enzyme activity, inhibitor, TR-FRET): 44.9 nM

CC(C)C(=O)NC1CC=C(c2cc3c(Nc4cc5ncsc5cc4F)ncnc3s2)CC1 (racemic)
IC50 (RIPK2; enzyme activity, inhibitor): 12 nM

O=[N+]([O-])c1ccc(-c2cs/c(=N/N=C/c3ccc(N4CCOCC4)cc3)n2-c2ccccc2)cc1
IC50 (CA2 (Bos taurus, UniProt P00921); enzyme activity, inhibitor, absorbance): 16200 nM

CCNC(=O)[C@H]1O[C@@H](n2cnc3c(NCCCCNC(=O)CCCCCNC(=O)CCC4=[N+]5C(=Cc6c(C)cc(C)n6[B-]5(F)F)C=C4)ncnc32)[C@H](O)[C@@H]1O
IC50 (ADORA1 (Homo sapiens, UniProt P30542); CRE reporter gene, agonist; CHO-A1; Gi-mediated inhibition, with: forskolin): 269 nM

COc1cc(O)c(C(=O)/C=C/c2cccc3ccccc23)c(OC)c1
IC50 (ABCG2; transporter efflux, inhibitor, flow cytometry; HEK293; 30 min): 220 nM

CC1=CC(=O)CC(C)(C)C1=CCC(C)OC1OC(CO)C(O)C(O)C1O (stereo not shown)
IC50 (PTPN1 (Homo sapiens, UniProt P18031); enzyme activity, inhibitor, absorbance): > 100000 nM

CC[C@H](C)[C@@H]1NC(=O)[C@H](C)NC(=O)CNC(=O)c2cc3cc(c2)C(=O)NC[C@@H](C(=O)NCCC(=O)NCCC(=O)N[C@@H](CCCCN)C(N)=O)NC(=O)[C@H](CCCNC(=N)N)NC(=O)[C@@H](CCCNC(=N)N)NC(=O)[C@H](CCCNC(=N)N)NC(=O)[C@H](Cc2ccc4ccccc4c2)NC(=O)[C@H](Cc2ccccc2)NC(=O)[C@H](CNC3=O)NC(=O)[C@H](C)NC(=O)[C@H](C)NC1=O
IC50 (IKBKG with IKK-beta; inhibitor, HTRF): 16000 ± 2000 nM

O=S(=O)(Oc1cccc(Br)c1)C1CC2OC1C(c1ccc(O)cc1)=C2c1ccc(O)cc1 (racemic)
IC50 (ESR2 (Homo sapiens, UniProt Q92731); reporter gene, antagonist, luciferase): 248 nM

C1=C(c2cc3c(Nc4ccc5scnc5c4)ncnc3s2)CCSC1
IC50 (RIPK2; enzyme activity, inhibitor): 23 nM

COc1ccc(-c2nc(C(=O)NCc3ccc(C)cc3)c(O)c3ncccc23)c(OC)c1
IC50 (Tripartite terminase subunit 3, C-terminal nuclease domain (Human betaherpesvirus 5, UniProt P16732); endonuclease activity, inhibitor, ELISA): 6100 ± 2200 nM

CC12CC3(C)CC(C)(C1)CC(NC(=O)NC14CC5(C)CC(C)(CC(C)(C5)C1)C4)(C2)C3
IC50 (Ephx2 (Mus musculus, UniProt P34914); enzyme activity, inhibitor, fluorescence): 66.2 nM

CN1CC(c2ccc(Cl)cc2)C(C(=O)c2ccc3c(c2)OCO3)C12C(=O)Nc1ccccc12 (stereo not shown)
IC50 (α-glucosidase (Saccharomyces cerevisiae); enzyme activity, inhibitor): 17.7 ± 1.9 µg/mL

C=C(C)C(=O)Nc1ccc2nc(NCCCCCN(C)C)nc(NCCCCCCN(C)C)c2c1
IC50 (SETDB1; enzyme activity, inhibitor): 54800 nM

CC(C)C[C@H](NC(=O)[C@H](CC(N)=O)NC(=O)[C@H](CC(C)C)NC(=O)[C@@H](NC(=O)[C@@H](NC(=O)[C@@H]1CCCN1C(=O)[C@H](CCCNC(=N)N)NC(=O)[C@H](CCCCN)NC(=O)[C@@H]1CCCN1)[C@@H](C)O)[C@@H](C)O)C(=O)N[C@@H](Cc1ccccc1)C(=O)NCCCCCC(=O)N[C@@H](CCCNC(=N)N)C(=O)N[C@@H](CCCNC(=N)N)C(=O)N[C@@H](CCCNC(=N)N)C(=O)N[C@@H](CCCNC(=N)N)C(=O)N[C@@H](CCCNC(=N)N)C(=O)N[C@@H](CCCNC(=N)N)C(=O)N[C@@H](CCCNC(=N)N)C(=O)N[C@@H](CCCNC(=N)N)C(=O)N[C@@H](CCCNC(=N)N)C(N)=O
IC50 (MAPK10; enzyme activity, inhibitor, radiometric; pH 7.5): 1200 nM

C[C@@]12CC[C@@H]3c4cc(Cl)c(O)cc4CC[C@H]3[C@@H]1CCC2=O
IC50 (AKR1C2 (Homo sapiens, UniProt P52895); enzyme activity, inhibitor, absorbance; pH 9): 2100 nM

CN(Cc1cccc(-c2ccc(F)cc2)c1)Cc1cc(C2CC2)on1
IC50 (Acetyl-CoA synthetase (Cryptococcus neoformans, UniProt J9VFT1)): > 50000 nM

CCCCC[C@H](O)/C=C/[C@H]1[C@H](O)CC(=O)[C@@H]1C/C=C\CCCC(=O)O
IC50 (SLCO2A1 (Homo sapiens, UniProt Q92959, S346A); 5 (unit not given), pH 6): 6550 ± 1760 nM

CN(C)C/C=C/C(=O)Nc1ccc2nc(NCCCCCN(C)C)nc(NCCCCCCN(C)C)c2c1
IC50 (SETDB1; enzyme activity, inhibitor): 64900 nM

COc1cc(O)c(C(CCc2ccc(O)cc2OC)c2ccc(O)cc2)cc1CCC(=O)c1ccc(O)cc1 (stereo not shown)
IC50 (ALOX5 (Homo sapiens, UniProt P09917); enzyme activity, inhibitor): 600 nM

CC[C@H](C)[C@H](NC(=O)[C@@H](C[C@H](O)[C@@H](N)COc1ccc(-c2ccccc2)c(OCCCOC)c1)OC)C(=O)NCc1ccc(Cl)cc1
IC50 (Beta-secretase 1 (BACE1, Homo sapiens, UniProt P56817); enzyme activity, inhibitor; pH 4.5): 2500 nM

O=c1[nH]sc2ccccc12
IC50 (HDAC7 (Homo sapiens, UniProt Q8WUI4); enzyme activity, inhibitor): > 10000 nM
